Assay results pooled from the literature.
Protocols differ between the studies behind these lines.

Compound	system	setting	half-life
Cc1ccccc1OCCCSCc1nc2ccccc2[nH]1	human liver microsomes 0.5 mg/mL	10 µM	6.06 min
Cc1c(-c2ccccc2)nn2c(=O)cc(-c3cccc(-c4nnn[nH]4)c3)[nH]c12	mouse liver microsomes	1 µM	196 min
COc1ccc2c(c1)CN(C(=O)OC(C(F)(F)F)C(F)(F)F)C2	mouse liver microsomes	together with: NADPH	5 min
O=C(CC1Cc2ccccc2C1)N[C@H](CN1CC[C@@H](F)C1)[C@H](O)c1ccc2c(c1)OCCO2	mouse liver microsomes	1 µM	1.4 min
CCCCNC(=O)NC1CC=C(c2cc3c(Nc4cc5ncsc5cc4F)ncnc3s2)CC1 (centres unmarked)	human liver microsomes	1 µM	> 120 min
CCOc1ccccc1Nc1nnc(SCC(=O)Nc2cc(F)ccc2F)s1	PBS		> 450 min
Cc1n[nH]c(C)c1CCOC(=O)c1cccc2c1oc(=O)n2C	mouse plasma		> 150 min
C#CCCCN1C(=O)C2(CN2[S+]([O-])C(C)(C)C)c2ccccc21 (centres unmarked)	glutathione		59.4 min
COc1ccc(CC(=O)OCc2ccc(-n3cccn3)cc2)cc1F	PBS		> 300 min
O=C(O)c1cccc(-c2nc(-c3ccccc3F)c3sccn23)c1	human liver microsomes	1 µM	45.9 min
CSc1cc(NC(=O)c2ccccn2)ccc1F	rat liver microsomes		5.73 min
